Measurements from different studies.
A part holds a random share of what one study measured. Positions count from the first letter of the parent shown.

Sample 1
Target: Interferon regulatory factor 5, full length, phosphomimetic (IRF5, Homo sapiens, UniProt Q13568-2, residues 1-514, S451D/S453D/S456D/S462D)
Technique: protein-binding microarray
Molecule type: double-stranded DNA, one strand shown
Medium: in vitro
Tested at: 940 nM top
Notes: 60-bp whole probe
With: salmon DNA 0.4 mg/ml
Relative to: random background probes
Direction: higher = stronger binding
Endpoint: fitted relative affinity
Constant ends, left off below: GCCTAGCAC … GTCTTGATTCGCTTGACGCTGCTG
TTAGGTTTAGGTATCGGTTAGTGCTAG: 5.68 z-score
CACGGTATCGGTCTCGGGACGTGCTAG: 7.49 z-score
TTAGGTATCGGGACTGAGTTAGTGCTA: 4.09 z-score
TCAGAATTAGGTTTCACACTGTGCTAG: 1.72 z-score
GACGGTATCCTTCTCCTTACGTGCTAG: 0.753 z-score
TTAGGTATCGGGGCTGGGTTAGTGCTA: 4.12 z-score
TTAGACCTGGGGTTTCGATTAGTGCTA: 5.52 z-score
GACGATCTCAGTCTAGAGACGTGCTAG: 0.217 z-score
GACGAACTGAGTCTAGAGACGTGCTAG: -0.617 z-score
TTAGGTACCGGACTGGGTTAGTGCTAG: -0.134 z-score
TTAAGTCTCCTTATCCTTTAGTGCTAG: 0.865 z-score
TCAGCATTGCTTCTATAACTGTGCTAG: -0.192 z-score
TTAGGGCTGCTTATCCTTTAGTGCTAG: -0.33 z-score
GACGGTCTCCTTCTCCTGTCGTGCTAG: 1.7 z-score

Sample 2
Target: CCND1, cyclin fold, Cln2 fusion (human)
Technique: yeast growth competition, sequencing
Medium: yeast
Notes: weak parent motif
Relative to: not given
Direction: higher = stronger binding
Endpoint: normalised enrichment score
Starting sequence: ORC1 docking peptide (human); PRARKRLELGNLG
R6D: 0.0538
R2V: 0.17
L9V: 0.366
L7K: 0.226
N11I: -0.517
R2P: -0.239
L12T: -0.0351
L9Q: -0.0334
P1R: -0.036
A3H: 0.169
N11P: 0.121
R6P: 0.0806
P1M: -0.475
P1W: 0.397

Sample 3
Target: Centromere-binding protein 1, full length, His-tagged (CBF1, Saccharomyces cerevisiae, UniProt P17106, residues 1-351)
Chain of UniProt P17106 (whole entry, looked up): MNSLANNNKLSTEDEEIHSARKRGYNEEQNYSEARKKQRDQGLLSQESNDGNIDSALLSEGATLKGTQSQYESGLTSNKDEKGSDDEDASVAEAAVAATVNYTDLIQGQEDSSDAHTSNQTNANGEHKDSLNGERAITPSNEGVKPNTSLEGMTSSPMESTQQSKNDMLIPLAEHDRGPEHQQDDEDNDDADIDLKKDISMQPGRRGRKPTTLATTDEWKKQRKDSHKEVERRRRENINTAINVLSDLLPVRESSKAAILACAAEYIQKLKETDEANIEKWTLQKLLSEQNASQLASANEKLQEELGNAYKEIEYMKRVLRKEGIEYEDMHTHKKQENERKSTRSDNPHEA
Technique: competition protein-binding microarray
Molecule type: double-stranded DNA, one strand shown
Medium: in vitro
Tested at: 2 µM
Notes: whole 60-bp probe, lowest competitor level
With: Pho4 competitor, 0.05 µM
Direction: higher = stronger binding
Endpoint: fluorescence intensity
Constant ends, left off below: … GTCTTGATTCGCTTGACGCTGCTG
CTAACGAAGGTTTGTTTAGTGGGTGACAAGCCAAGT: 76.1 a.u.
AGGTTTCGCCATAGCCATGTGCCTATATTAAATAGA: 161 a.u.
TATCCAAGTGCCCATCACGTTTTTTTATTTAATGTA: 778 a.u.
GCATTAGGTACGATGCACGGGTGCACTGTTAAAAAA: 102 a.u.
CGGGGTTAAGTTTGTCACGTGTTTTGCTTGCAGCAG: 5840 a.u.
CGTCCTAGTGATTGTGGTGTGGGTGCCATGAGGAAG: 93.3 a.u.
AGGGCTGAGGCAGCGCACGTGTGAGCGCCGCTGAGG: 516 a.u.
TATGCTGTGTTTGACCAGGCGAACAACATTGAGAGA: 78.6 a.u.
CTTTCCCGATCTTGTCACATTACTTTAGCACATTTG: 125 a.u.
CTTTCCCGATCTTGGCATGTGGGTGTAGCACATTTG: 70.9 a.u.
CATCGTACAGGGGTTCATGTGCTGGTGCAGTAATTC: 86.5 a.u.

Sample 4
Target: UBE2L3 UBC core domain (UniProt P68036)
Chain of UniProt P68036 (whole entry, looked up): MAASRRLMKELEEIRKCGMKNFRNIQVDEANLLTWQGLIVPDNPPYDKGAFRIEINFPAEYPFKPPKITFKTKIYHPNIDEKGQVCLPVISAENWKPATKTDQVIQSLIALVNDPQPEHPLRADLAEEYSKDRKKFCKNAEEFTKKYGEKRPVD
Technique: yeast two-hybrid
Medium: yeast
Notes: mostly zero background
Relative to: not given
Direction: higher = stronger interaction
Endpoint: lacZ reporter activity
B1: SYTL4 RING domain (UniProt Q96C24); chain RGSQHYSDRTCARCQESLGRLSPKTNTCRGCNHLVCRDCRIQESNGTWRCKVCAKEIELKKAT
B2: RNF121 RING domain (UniProt Q9H920); chain MPTKHLSDSVCAVCGQQIFVDVSEEGIIENTYRLSCNHVFHEFCIRGWCIVGKKQTCPYCKEKVDLKRMFS
B3: MDM4 RING domain (UniProt O15151); chain MEDCQNLLKPCSLCEKRPRDGNIIHGRTGHLVTCFHCARRLKKAGASCPICKKEIQLVIKVF
B4: RNF133 RING domain (UniProt Q8WVZ7); chain DEEINPNGDSCVICFERYKPNDIVRILTCKHFFHKNCIDPWILPHGTCPICKCDILKVLGIQ
AVPSGLEENLCKICMDSPIDCVLLECGHMVTCTKCGKRMNECPICRQYVIRAVHVF (RFFL RING domain (UniProt Q8WZ73)): 0
NLSELTPYILCSICKGYLIDATTITECLHTFCKSCIVRHFYYSNRCPKCNIVVHQTQPLY (PCGF6 RING domain (UniProt Q9BYE7)): 0
B1 (SYTL4 RING domain): 0
KETIKKTTKPCPRCHVPVEKNGGCMHMKCPQPQCRLEWCWNCGCEWNRVCMG (PRKN RING domain (UniProt O60260)): 0
GSDDEEIPFKCFICRQSFQNPVVTKCRHYFCESCALQHFRTTPRCYVCDQQTNGVFNPA (RNF113A RING domain (UniProt O15541)): 0
B2 (RNF121 RING domain): 0
B3 (MDM4 RING domain): 0
GSRLQEINDVCAICYHEFTTSARITPCNHYFHALCLRKWLYIQDTCPMCHQKVYIEDDIK (RNF139 RING domain (UniProt Q8WU17)): 0
PEDRESLKSACVVCLSSFKSCVFLECGHVCSCTECYRALPEPKKCPICRQAITRVIPLY (MUL1 RING domain (UniProt Q969V5)): 0
B4 (RNF133 RING domain): 0

Sample 5
Target: RNA binding protein fox-1 homolog 2, RRM domain, GST-SBP tag (RBFOX2, Homo sapiens, UniProt O43251-10, residues 100-194)
Technique: RNA Bind-n-Seq
Molecule type: RNA
Medium: in vitro
Tested at: 365 nM
Notes: natural RNA segment, single round, ends assumed
Relative to: no-protein control
Direction: higher = stronger binding
Endpoint: RBNS enrichment (R)
Constant ends, left off below: GGGAGUUCUACAGUCCGACGAUC … UGGAAUUCUCGGGUGCCAA
Construct (chain): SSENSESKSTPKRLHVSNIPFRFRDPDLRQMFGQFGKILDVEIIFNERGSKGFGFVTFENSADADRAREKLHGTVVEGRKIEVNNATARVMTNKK
UUGUGAUUCUGGGGUCUCUUCAAUGACCCCGGUACCUCAUGAACCCCUGCUUAGCAUGGUUGUGCUACCAUCCAGGAGAAUGUUGAUGGAACCAAAUUAAAUAUUUACUG: 0.611
CUACAAUUUUCGACUUAACUUCAAAACACAGUAUUGUGUUAUCUAUCACAUAACAGGACCAUGUUUUUAACCUACCAUCAAGAGCCUGUAUUUUGAGUUAUUCCAACAGA: 0.548
GGUCUAUGAAGACCAGUGGUAGUGCCCAGACUUCUCCUAGACAUCUAGUCUAAAACAUUCUCCUAGGACCAGGGAAGCCUGGCUUACAGUGCCAUUUCUGCUGGGCACCA: 0.27
AACAGUUCAUUGCUUUGGAAUGGCCGUGAAAGAGAUCUAACUGUGGAUGCUUACUGAGGCUUGUAUGUAGUGUUGGUUACUGGGGAAGUGUUUGGCCUCCUUGGACUGUG: 2.16
UGCCCGACUUCGUACUAAGCAGCUCAGGAGCAGUCACUCAGACCCAAAUGUCUUGACUGUGUUGUUUUUAAUCACUGUGACCCUUAAAGUACAGGCCAAGUGUUGUCAAA: 0.243
AAAAAAAAUUCCACUAGACCACCAUCCCUUUUGUUUUGGGAUUUUUUUUCAACCUUUUCCAUUUGCUGAGUGAAGAUGGUCACUAACUCUAUGCUGCAAUAACGGGAGAG: 0.507
CAAGUAACCAAGCUGUUGACUUUCUUACUACUUGCAGUAGCCUGUCCCCAACUUUUCCAUCCAGUGCUUAACCUAAAAAACUCCUUAACUCUGCCUUGACCUGAGGAAGA: 1.23
GUAGACAAAAUGGAUAUAAAUGAAAAUUACCAUGUUGUAAAACCUUGAAAAUCAGAUUCUAACUGGAUUUGUAUGCAACUAAGUAUUUUUCUGAACACCUAUGCAGGUCU: 0.651
AAUGGAUGGUGGAAGGGUGGCGAAUGUUCAAAUUCAUAUGUGUGGUAGUGAUUCUUGGAAAGAAUUUGAGGUCCCCAAAGGUGUAUUUUUGGGCAAAUGAAACCAUAAAC: 1.43
UUGCCUUCCAGGUGAAGGUGCAAAGUCAUACAUAUUAAUGACCUGACAGUUAACAUUCUGUUGUUUAUUAUUGCCUUUCUCCACCUUAGAGAGCCAUAAAUAACUCUCUG: 0.305
GUGUGCCGGGCUCUGACUGAGAAACUGAACAAUGGCAGGCGCUUCAUCUGGGCAGCCAUUUUUCUUCUCUGCUUCUCUUGAGAUACAUAGUUAAAGUAGACACGGCCUCC: 0.32
CUCACUCUUUUUUUUUAGUUACUAAUCAUUUUAUGAAAAUAAUGUAUUUAUAAGUAUUUUCUUAAGGUUUGUGAAGAGUAUUUGCAUUGUGUCUUCAUUUUAAUGUGUUU: 1.81

Sample 6
Target: Histone acetyltransferase KAT6A, both winged helices, GST fusion (KAT6A, Homo sapiens, UniProt Q92794, residues 1-181)
Technique: protein binding microarray
Molecule type: double-stranded DNA, one strand shown
Medium: in vitro
Tested at: not given
Notes: 8-mer, flanks averaged, mean of 2 arrays, mostly near background
Relative to: not given
Direction: higher = stronger binding
Endpoint: E-score
Target sequence (chain): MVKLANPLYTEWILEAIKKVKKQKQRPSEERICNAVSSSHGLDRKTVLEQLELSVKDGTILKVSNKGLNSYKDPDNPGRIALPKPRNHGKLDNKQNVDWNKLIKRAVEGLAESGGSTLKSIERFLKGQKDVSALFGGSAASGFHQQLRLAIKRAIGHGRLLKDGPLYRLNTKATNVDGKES
ACCTTGAT: -0.097
CGGTATAG: 0.186
ATTGACAG: 0.0905
CATAGGAG: -0.121
CCAAAGCC: -0.123
GGGATTAC: -0.0832
CTAGAGGA: -0.112
CTTTTGCC: -0.00038
CACTTTGA: -0.232
AATCCCGG: 0.154
CACATCCA: -0.124
CCGGTACG: 0.195
AGTTGCCC: 0.00477
ACTCCTTA: -0.118
CAGTCGCC: 0.0244
CCATTGTC: -0.0929
GCAGCACA: 0.00266
ATTGGCTC: -0.122
CGCAGCTC: 0.103

Sample 7
Target: RING finger protein unkempt homolog, zinc fingers 1-6, GST-SBP tag (UNK, Homo sapiens, UniProt Q9C0B0, residues 30-357)
Technique: RNA Bind-n-Seq
Molecule type: RNA
Medium: in vitro
Tested at: not given
Notes: RNA with constant flanks, ends assumed
Relative to: input RNA pool
Direction: higher = stronger binding
Endpoint: bound/input enrichment
Constant ends, left off below: GGGAGUUCUACAGUCCGACGAUC … CAACAGAGGAUUGAGCAUCA
Target sequence (chain): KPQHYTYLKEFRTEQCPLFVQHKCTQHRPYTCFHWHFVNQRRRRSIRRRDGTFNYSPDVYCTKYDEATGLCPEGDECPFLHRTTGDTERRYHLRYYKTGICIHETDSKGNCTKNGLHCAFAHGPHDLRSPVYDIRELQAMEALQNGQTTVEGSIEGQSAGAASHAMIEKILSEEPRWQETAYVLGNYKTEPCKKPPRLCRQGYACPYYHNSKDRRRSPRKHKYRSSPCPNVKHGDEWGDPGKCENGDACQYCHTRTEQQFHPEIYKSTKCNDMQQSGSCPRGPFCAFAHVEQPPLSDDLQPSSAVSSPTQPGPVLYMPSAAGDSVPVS
CCACAGCCCUUAUUACAGCAGCCUCAGCAAAAAGCUGGUUUAUUGCAGCCUCCUGUUCGUACCGUUUCACAGCCACAACCGGCACGACGAUUAGAUCCCCCAUCCCGAUUUUCAGGAAGA: 0.772 ratio
GUGAAUCUUUAACAUUACCUGGUGUGUUCCCUAACAUUCAAACUGUGCAUUGGCCAUACCCUCCGGAGUGGUUUGAGUAGUACAGACCUCGAAGCCUUGCUGCUAACACUGAGGUAGCUC: 0.197 ratio
ACUGGUGUGAUCAUUGUUGGACUGCAGGGGGAAGCUGAGCGUGGACCCCGCUUUCCCCGGGCCCGCAGUGAGGCUACGAUUCGUGAGAAUGCGCCCCCAGGGACUCCUAUUGUCUCCCCC: 0.0968 ratio
AUGUACGAGCAUAAUCGAAACGUCACGUGUUUAGUUUUUAUAUGUGUGUACAUAAUUAUACACCGAGAUAGACUUGUGUAUACACCCUUCGCGCGCACACAUACACACACUCACAUCCUC: 0.751 ratio
UUUGAUUUCUUUUUCUUUUUUUCUCUUCUUGUUUUUGUUUUUCUUUUUUGUUUGUUUUUUCCGCAUGCAAAUAUGUUGGUACGUUAUGUCCUGGUUUAAAAGGAUUAAAAAUUUAAAAGU: 0.574 ratio
CACUCGAGCCAGCACCACCGUUCUCACGCCCUGAGCUGCAGACAGCUAGGCGGUUUUAUCCCGUUUGAACCAGGCUGCUGGAGCUUGCUCCCUCCCGCCCUCUCUCUUUUUUUUCCACGG: 0.194 ratio

Repeated from above (sample 1):
TCAGAATTAGGTTTCACACTGTGCTAG: 1.72 z-score
GACGGTATCCTTCTCCTTACGTGCTAG: 0.753 z-score
TTAGGTATCGGGGCTGGGTTAGTGCTA: 4.12 z-score
TTAGACCTGGGGTTTCGATTAGTGCTA: 5.52 z-score
GACGATCTCAGTCTAGAGACGTGCTAG: 0.217 z-score
GACGAACTGAGTCTAGAGACGTGCTAG: -0.617 z-score
TTAGGTACCGGACTGGGTTAGTGCTAG: -0.134 z-score
TTAAGTCTCCTTATCCTTTAGTGCTAG: 0.865 z-score
TCAGCATTGCTTCTATAACTGTGCTAG: -0.192 z-score
TTAGGGCTGCTTATCCTTTAGTGCTAG: -0.33 z-score
GACGGTCTCCTTCTCCTGTCGTGCTAG: 1.7 z-score
